# Assay results pooled from the literature.
# Numbered parts are unrelated; each lists some results of a single study.

# Series 1 — method: RNA Bind-n-Seq; molecule type: RNA; medium: in vitro; concentration: not given; relative to: input RNA pool; reading: higher = stronger binding
# Target: RING finger protein unkempt homolog, zinc fingers 1-6, GST-SBP tag (UNK, Homo sapiens, UniProt Q9C0B0, residues 30-357)
# Notes: RNA with constant flanks, human-mouse chimeric sites, ends assumed
# All sequences stand within: GGGAGUUCUACAGUCCGACGAUC … CAACAGAGGAUUGAGCAUCA
# Construct (chain): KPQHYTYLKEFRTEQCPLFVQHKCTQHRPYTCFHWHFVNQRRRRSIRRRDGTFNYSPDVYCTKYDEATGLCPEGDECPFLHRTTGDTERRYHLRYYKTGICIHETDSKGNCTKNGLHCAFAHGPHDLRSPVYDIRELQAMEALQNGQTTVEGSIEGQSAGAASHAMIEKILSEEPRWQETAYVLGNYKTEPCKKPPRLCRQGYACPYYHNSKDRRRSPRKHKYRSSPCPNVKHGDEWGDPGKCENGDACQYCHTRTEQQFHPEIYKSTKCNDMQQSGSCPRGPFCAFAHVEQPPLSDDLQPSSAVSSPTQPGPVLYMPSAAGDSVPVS
Oligonucleotide,bound/input enrichment
UACAUUUUAUUGUUGAGUUUCAUUUUCAUAUAUUCUUGUAGUGUCUGCUUGCCUGUGUCUUUUAGUAAAAUAAAAUAAGCCUUUGAAAAUAUUUUAGCAUGGUAUUUAACAUUUUCUAAA,5.63 ratio
GUUGCCAGCUUCCGGUUCCGUUGGGCUAGCAAGCUCCCUGAGCUACGUGUCUCUACGCUCUCAAUCCGCCAUCCAACGGCAGUCAUGCAGGUAAUGCAGUUUGUGGAGCCCAGCCGGCAG,0.0742 ratio
GUACUGCAGCAGCAGGGAAAACUGCAGGAAGCUCUGAUGCAUUAUAAGGAGGCUAUUCGAAUUAGUCCUACCUUUGCUGAUGCUUAUUCUAAUAUGGGAAACACUCUAAAGGAGAUGCAG,0.2 ratio
ACUCAGAGAUCCACCUCCCAAAGUGCUGGGAGUAAAGGUGUGGCCACCACACCUAACUUGAUGGAUAUAUAUUUUUUUUAAUAUGAAUCUUCCUGUUCUUCAUCCAGAGAAAGAUUUGUU,0.832 ratio
CACACACUCUUCUGCGGGACCCUCAUCCUGCAGGCCCGGGCCUAUGUGGGACCGCACGUCCUGGCAGUGGUGACCCGGACAGGGUUCUGCACGGCAAAAGGGGGCCUGGUGAGCUCCAUC,0.055 ratio
CAGCCUCAGAGCCCAGACUUCCUGGAUAUUACCAACCCUAAAGCGGUAUUAGAAAAUGCAUUGAGAAACUUCGCCUGUCUGACGACUGGAGAUGUGAUUGCCAUCAACUACAAUGAGAAG,0.398 ratio
GCUCCUCCCCGCUCUGCAGCCUGGGGACUUUUGGCAAGGACCAGAAUCCAGCUUUCUUUUAAAACUCUCAGUGUAACUGUAUCCCGUGACAUUUCAUUUUUUUUAAAAGAAAAAAACUUU,0.3 ratio
UGACAAGGGCACUGCAGAGCCAUGCCUUUCCUUGACAUACAGAAAAAGCUGGGCAUCAGCCUGGACCGAUGGUUGACGUUCCUAAGCGGUGAACAGCCCUAUAAGAACGCCGCUCGGUGC,0.0816 ratio
AACGUGGAGUUGAGUUCGCUGGCCCGGCUUCCCAGCUUGAAUAAACUCCGGAAGUUGGAGCUUAGUGACAAUAUAAUUUCUGGAGGCUUGGAAGUCCUGGCAGAGAAAUGUCCAAAUCUU,0.202 ratio
CUGUUUUGACAGCCACACAAUCUUGGCAUGUAUUAAGAAAAAAAAAAAUCCCUGUUGAAGUAGUUUUUCCACCUAUCAGCACUGAGUAAAUGCCAUAAAUCCAUUGAAAUGGUCUAAAUA,0.37 ratio
CUGUGACCACAAGAUCCUACCUGAGUGGCAGCUGAAGUUGACUCCCUCUCCUUGCCUGAACCCCCCCCCACUGCCCCCCCAUCCCCCGCAGAAUUCCGAGAUGUUGCCAGCAGACAGUUC,0.661 ratio

# Series 2 — method: RNA Bind-n-Seq; molecule type: RNA; medium: in vitro; concentration: 200 nM; notes: whole 134-nt RNA, ends assumed; together with: 150 mM LiCl; relative to: input library; reading: higher = stronger binding; all molecules: 7-deaza-guanosine replaces G
# Target: Fragile X messenger ribonucleoprotein 1, C-terminal low-complexity region (Fmr1, Mus musculus, UniProt P35922)
# All sequences stand within: GGGAGUUCUACAGUCCGACGAUC … UGGAAUUCUCGGGUGUCAAGG
Oligonucleotide,log2 enrichment
CUGUGCUACACAUCGUAUGUACCGAAUCGGGGUUUUUUUGGGGUUUUUUUGGUUUUUUUGGGAAAGUAUUAUGUUACGCCGUUCGGAUCU,1.08
UCCUCAAGUCCUGUGCUACACAUCGUAUGUACCGAAUCGGAGGAGGUUUGGAAAGUAUUAUGUUACGCCGUUCGGAUCUGCACUUCCAGC,-2.63
UGGCCCUGGUGGCAUGCGGGGAGGAAGAGGUGGCCUCAUUGAUCGUGGUGGUCCCGGUGGAAUGUUCAGAGGUGGCCGUGGUGGAGACAG,0.13
UCCUCAAGUCCUGUGCUACACAUCGUAUGUACCGAAUCGGUGGGUGGUGGGAAAGUAUUAUGUUACGCCGUUCGGAUCUGCACUUCCAGC,0.413
UCCUGUGCUACACAUCGUAUGUACCGAAUCGGGGUUUUUGGGGAAAAAAAGGGGAGGGGAAAGUAUUAUGUUACGCCGUUCGGAUCUGCA,-0.793
GCAGGAAGUAAAAACAAAUGGAAAUGCUUCGGAUAGUGGCAGGGGUGGGGGUUGCUAAGGAAAGGGUGGGAUGGGAGUGGGUAAAGAAAA,1.57
GCAGGAAGUAAAAACAAAUGGAAAUGCUUCGGAUAGUGGCAGGGGUGGGGGUUGCUAAGGAAAGGGUGGGAUGGGAGUGGGUAAAGAGUC,1.49
GUCCUGUGCUACACAUCGUAUGUACCGAAUCGGGCCCCCGGCCCCCGGGGCCCCCGGGAAAGUAUUAUGUUACGCCGUUCGGAUCUGCAC,-2.88
GCAGGAAGUAAAAACAAAUGGAAAUGCUAAAGAUAGUGGCAGGGGUGGGGGUUGCUAAGGAAAGGGUGGGAUGGGAGUGGGUAAAGAGUU,1.77
UGGCCCUGGUGGCAUGCGGGGAGGAAGAGGUGGCCUCAUGGAUCGUGGUGGUCCCGGUGGAAUGUUCAGAGGUGGCCGUGGUGGAGCCAG,-0.242
CAAGUCCUGUGCUACACAUCGUAUGUACCGAAUCGGGGAAAGGAAAGGGGAAAGGAAAGUAUUAUGUUACGCCGUUCGGAUCUGCACUUC,-0.432

# Series 3 — method: protein binding microarray; molecule type: double-stranded DNA, one strand shown; medium: in vitro; concentration: not given; relative to: not given; reading: higher = stronger binding
# Target: Histone acetyltransferase KAT6A, winged helix 1, GST fusion (KAT6A, Homo sapiens, UniProt Q92794, residues 1-85)
# Notes: 8-mer, flanks averaged, mean of 2 arrays, mostly near background
# Residues (chain): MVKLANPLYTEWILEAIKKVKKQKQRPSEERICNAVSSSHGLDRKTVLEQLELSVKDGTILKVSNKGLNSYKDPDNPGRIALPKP
Oligonucleotide,E-score
AGCGCTAG,0.207
AGGCGTTC,-0.00564
AGAACCCA,-0.28
TCTCACAA,-0.0578
CCTGCCCA,-0.234
ACCCATGC,-0.0788
ATGTAAAC,-0.0238
CCAGATAA,-0.152
ACCGGGTA,0.191
CCGTCCAA,0.188
AAGAAGAC,-0.22
ACGCCGTA,0.356
CGACGGAC,0.382
TCAATGCA,-0.226
CGACAGGA,-0.0109
ACATCAGA,-0.14
ACCCGGAA,0.17
GATGACCC,-0.164
CTCGGGAA,0.117
AGCTGGTC,-0.182

# Series 4 — method: aptamer microarray, sandwich; molecule type: DNA with 2'F-ANA; medium: in vitro; concentration: 200 nM; together with: Cy3 exosite-II aptamer, 400 nM; reading: higher = stronger binding; oligonucleotide: GGTTGGTGTGGTTGG
# Target: Prothrombin, mature alpha-thrombin (F2, Homo sapiens, UniProt P00734)
# Notes: whole 15-mer aptamer, many near background
Modification,mean fluorescence intensity [a.u.]
2'F-ANA at 2 8 10 11 12 13,145
2'F-ANA at 1 2 3 6 10 14,55.9
2'F-ANA at 1 2 3 4 6 7 9 11 13 14,54.2
2'F-ANA at 2 4 5 8 9 12 14 15,55.3
2'F-ANA at 1 5 8 10 13 14,43.4
2'F-ANA at 1 5 7 11 12 13 14,88.3
2'F-ANA at 1 3 5 7 8 9 10 11,45
2'F-ANA at 2 3 4 6 8 10 12 13 14,148
2'F-ANA at 2 3 6 10 14 15,266
2'F-ANA at 3 5 6 7 8 9 10 11 13 14,51.6
2'F-ANA at 4 6 8 12 13 14 15,93.1
2'F-ANA at 2 3 4 7 9 11 13 15,392
2'F-ANA at 2 3 9 11 14,407
2'F-ANA at 4 5 6 7 10 14 15,45.8
2'F-ANA at 1 2 3 5 9 11 12 15,90
2'F-ANA at 2 3 6 7 9 10 13,290
2'F-ANA at 1 2 3 4 8 10 12 13 15,64.4
2'F-ANA at 4 9 11 12 15,437
2'F-ANA at 1 2 3 7 8 10 14 15,54.2
2'F-ANA at 1 2 4 6 7 9 10 11 12 13 14,50.3
2'F-ANA at 2 3 4 5 9 10 11 14 15,47.9
2'F-ANA at 2 4 7 8 9 10 11 12 14 15,123
2'F-ANA at 3 4 6 7 9 10 11 12 15,268
2'F-ANA at 3 4 7 8 9 10 11 13 14,219
2'F-ANA at 1 3 10 12 13 14,60.7

# A few entries again (series 4):
Modification,mean fluorescence intensity [a.u.]
2'F-ANA at 3 5 6 7 8 9 10 11 13 14,51.6
2'F-ANA at 2 3 4 6 8 10 12 13 14,148
2'F-ANA at 4 9 11 12 15,437
2'F-ANA at 2 3 4 7 9 11 13 15,392
2'F-ANA at 2 3 4 5 9 10 11 14 15,47.9
2'F-ANA at 1 2 3 6 10 14,55.9
